Experimental data collected from several papers.
Several values in a cell are separate wells, animals, samples, runs or records. ± marks the error that the study gave. In brackets after ≈: the same amount, converted by molar mass.

SMILES	tested on	assay	system	setting	scale	measurement	value
CCCC/C=C/C(=O)N[C@@H](Cc1csc2ccccc12)C(=O)N[C@H]1COC(=O)[C@@H]2C[C@@H](C)CN2C(=O)[C@H](C)NC(=O)[C@@H]2CCCCN2C(=O)[C@@H]2CCCN2C1=O	human coronavirus 229E		Huh-7	concentration not given, unit not given	relative to: DMSO	viral RNA release	0.000424 and 0.000332 and 0.000303
Cc1cc(Oc2nc(N3CC[C@@H](c4ccncc4)C3)ncc2F)[nH]n1	Mycobacterium tuberculosis		THP-1, H37Rv non-replicating	9.488 µM, day 4 plus 1		normalised growth	64.5% and 62.1%
CC(=O)N[C@H]1[C@H]([C@H](O)[C@H](O)CO)OC(C(=O)O)=C(C/C=C/c2ccc(C)cc2)[C@@H]1O	Influenza A virus	viral replication	A/California/07/2009 (H1N1)	72 h		EC50	36 µM
CC1(C)CCC2(C(=O)NCc3ccccc3)CCC3(C)C(=CCC4C5(C)CCC(OC(=O)C6CC(OC(=O)c7ccc(OCc8ccccc8)c(OCc8ccccc8)c7)CN6C(=O)c6ccc(OCc7ccccc7)c(OCc7ccccc7)c6)C(C)(C)C5CCC43C)C2C1 (stereo not drawn)	Influenza A virus	viral replication	MDCK, A/WSN/1933 (H1N1)	48 h		EC50	15.4 ± 1.81 µM
Cc1ccc2nc(C)c(CC(=O)NCc3ccc(N(C)C)cc3)n2c1	Bacillus subtilis	microbial growth	ATCC6633	2 mM, 20 h		inhibition zone	0 mm
COc1ccc(C(=O)OC2CC(C(=O)OC3CCC4(C)C(CCC5(C)C4CC=C4C6CC(C)(C)CCC6(C(=O)NCc6ccccc6)CCC45C)C3(C)C)N(C(=O)c3ccc(OC)c(OC)c3)C2)cc1OC (stereo not drawn)	Influenza A virus		MDCK, A/WSN/1933 (H1N1)		relative to: CC50 over EC50	selectivity index	> 24.9
CC(C)CC(C(=O)N1CC2(CC1C#N)C(=O)Nc1ccccc12)N(C)C(=O)c1cc2c(F)cc(F)c(F)c2[nH]1 (stereo not drawn)	Human coronavirus 229E	cytopathic effect	MRC5	0.3383 µM		inhibition	101%
CCc1ccn2c(C(=O)NC(C)c3ccccc3)c(C)nc2c1 (stereo not drawn)	Bacillus subtilis	microbial growth	ATCC6633	2 mM		inhibition zone	0 mm
C#CCNC(=O)C[C@H](Cc1ccc(F)cc1)NC(=O)[C@@H](Cc1ccc(Cl)cc1Cl)NC(=O)[C@H](N)Cc1ccccc1C#N	human coronavirus 229E	cytopathic effect	Huh-7 cells			EC50	2.5 µM
CN[C@@H]1[C@H](O)[C@H](NC)[C@H]2O[C@]3(O)[C@H](O[C@@H]2[C@H]1O)O[C@H](C)C[C@H]3NC(=O)Cc1ccccc1	Burkholderia cepacia	microbial growth, broth dilution	ATCC25416			MIC	> 200 µg/mL
CN(C)c1ccc(-c2nc3ccccc3n2CCCOc2ccccc2)cc1	Mycobacterium bovis BCG			concentration not given		activity	inactive
Oc1ccc(Br)cc1-c1nc2cc(C(F)(F)F)ccc2s1	human coronavirus 229E		Huh-7	concentration not given, unit not given	relative to: DMSO	genomic RNA level	0.86 and 0.597 and 0.986
CC1(C)[C@H](NC(=O)/C(=N\OCCN)c2nsc(N)n2)C(=O)N1OS(=O)(=O)O	Salmonella enterica Typhi	agar dilution	susceptible			MIC	16 µg/mL (≈ 37.8 µM)
Cc1ccc(N2CC3CC(C2)N3C)cc1C(=O)NC1(c2ccc3c4c(cccc24)C(=O)N3C)CC1	human coronavirus 229E	viral replication	Huh-7	0.1875 µM		inhibition	0%
Cc1ccc(NS(=O)(=O)c2c(C(=O)N3CCCCCC3)c(C)n(C)c2C)c(Cl)c1	Fowlpox virus	viral infection	CEF	11.11 µM	relative to: untreated	infection	94.9% and 110% and 83.6%
CC1(C)CCC2(C(=O)NCc3ccccc3)CCC3(C)C(=CCC4C5(C)CCC(OC(=O)C6CC(OC(=O)c7ccc(F)c(F)c7)CN6C(=O)c6ccc(F)c(F)c6)C(C)(C)C5CCC43C)C2C1 (stereo not drawn)	Influenza A virus		MDCK, A/WSN/1933 (H1N1)		relative to: CC50 over EC50	selectivity index	> 22.4
Cc1ccc(CNC(=O)Cc2c(C)nc3ccc(C)cn23)cc1	Bacillus subtilis	microbial growth	ATCC6633	2 mM, 20 h		inhibition zone	0 mm
C#CCO/N=C(\C(=O)N[C@@H]1C(=O)N(OS(=O)(=O)O)C1(C)C)c1nsc(N)n1	Salmonella enterica Typhi	agar dilution	susceptible			MIC	8 µg/mL (≈ 19.1 µM)
O=C(Nc1ccccc1SSc1ccccc1NC(=O)c1ccccc1)c1ccccc1	Influenza A virus	viral replication	MDCK, A/NWS/33 (H1N1)		relative to: CC50 over EC50	selectivity index	0.18 ± 0.035
CC1OC(OC2C(CO)OC(OC3CCC4(C)C(CCC5(C)C4CC=C4C6CC(C)(C)CCC6(C(=O)NCc6ccccc6)CCC45C)C3(C)C)C(OC3OC(C)C(O)C(O)C3O)C2O)C(O)C(O)C1O (stereo not drawn)	Influenza A virus	viral replication	MDCK, A/WSN/1933 (H1N1)	48 h		EC50	35.6 ± 1.91 µM
Cc1ccc2nc(C)c(C(=O)C(=O)N(C)C)n2c1	Bacillus subtilis	microbial growth	ATCC6633	2 mM, 20 h		inhibition zone	0 mm
CC1(C)[C@H](NC(=O)/C(=N\OCCN)c2csc(N)n2)C(=O)N1OS(=O)(=O)O	Salmonella enterica Typhi	agar dilution	susceptible			MIC	2 µg/mL (≈ 4.73 µM)
CCc1ccn2c(C(=O)NCc3ccccc3)c(C)nc2c1	Bacillus subtilis	microbial growth	ATCC6633	2 mM, 20 h		inhibition zone	0 mm
O=C1NC2(CC2)COc2ncc(F)cc2[C@H]2COCCN2c2ccn3ncc1c3n2			Sprague-Dawley rat, female, heart	oral, 10 mg/kg/day, 4 weeks, end of treatment		organ-to-body weight ratio	0.391 ± 0.034%

Repeated from above:
SMILES	tested on	assay	system	setting	scale	measurement	value
CC1(C)[C@H](NC(=O)/C(=N\OCCN)c2csc(N)n2)C(=O)N1OS(=O)(=O)O	Salmonella enterica Typhi	agar dilution	susceptible			MIC	2 µg/mL (≈ 4.73 µM)
